Assay results gathered from unrelated publications.
Lines come from different studies, so protocols differ. Values joined by “and” are separate records of one study, mostly repeats; a detail may differ. ± gives the spread as reported.

Chains of the proteins cited; added tags and fusions are not shown. A line that says so, or that is headed by a name, gives the form on record, which may keep a tag or linker. Residues count along the entry.
UniProt Q13976, whole entry: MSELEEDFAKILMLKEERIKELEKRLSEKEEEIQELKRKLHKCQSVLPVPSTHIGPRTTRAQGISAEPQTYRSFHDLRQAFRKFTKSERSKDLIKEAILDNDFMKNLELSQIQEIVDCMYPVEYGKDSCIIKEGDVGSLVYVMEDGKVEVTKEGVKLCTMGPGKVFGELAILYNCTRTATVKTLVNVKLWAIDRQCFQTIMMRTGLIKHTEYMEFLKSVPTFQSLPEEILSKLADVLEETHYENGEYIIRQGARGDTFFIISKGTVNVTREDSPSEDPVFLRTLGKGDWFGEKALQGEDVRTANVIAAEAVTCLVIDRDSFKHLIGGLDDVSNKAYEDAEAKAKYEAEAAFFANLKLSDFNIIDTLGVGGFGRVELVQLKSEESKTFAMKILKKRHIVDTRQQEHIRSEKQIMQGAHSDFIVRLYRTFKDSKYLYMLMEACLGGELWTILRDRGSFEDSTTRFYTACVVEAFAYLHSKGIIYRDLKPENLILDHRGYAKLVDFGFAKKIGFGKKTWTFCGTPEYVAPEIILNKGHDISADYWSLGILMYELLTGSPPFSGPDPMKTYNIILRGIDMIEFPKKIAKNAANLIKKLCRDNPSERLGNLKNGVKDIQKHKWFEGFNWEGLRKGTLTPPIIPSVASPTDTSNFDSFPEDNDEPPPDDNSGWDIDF
UniProt Q9JKC1, 24-597 limits assumed: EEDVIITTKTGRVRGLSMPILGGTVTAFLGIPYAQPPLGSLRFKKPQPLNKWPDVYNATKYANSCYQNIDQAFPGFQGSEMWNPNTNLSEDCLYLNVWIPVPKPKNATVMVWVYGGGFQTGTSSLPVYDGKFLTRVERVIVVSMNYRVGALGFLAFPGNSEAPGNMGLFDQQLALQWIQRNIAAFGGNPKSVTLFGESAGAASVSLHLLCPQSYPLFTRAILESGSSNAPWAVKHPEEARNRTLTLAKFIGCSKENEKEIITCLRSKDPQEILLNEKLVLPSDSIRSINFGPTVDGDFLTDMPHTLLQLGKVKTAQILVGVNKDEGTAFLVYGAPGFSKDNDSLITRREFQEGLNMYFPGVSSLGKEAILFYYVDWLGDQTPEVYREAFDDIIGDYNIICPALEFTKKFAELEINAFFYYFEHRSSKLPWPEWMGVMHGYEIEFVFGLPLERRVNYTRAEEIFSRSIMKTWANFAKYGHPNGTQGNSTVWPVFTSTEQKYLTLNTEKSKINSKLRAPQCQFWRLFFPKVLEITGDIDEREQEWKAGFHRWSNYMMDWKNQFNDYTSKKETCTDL
UniProt P08510, 1-655 with tags or gaps DEL6-46: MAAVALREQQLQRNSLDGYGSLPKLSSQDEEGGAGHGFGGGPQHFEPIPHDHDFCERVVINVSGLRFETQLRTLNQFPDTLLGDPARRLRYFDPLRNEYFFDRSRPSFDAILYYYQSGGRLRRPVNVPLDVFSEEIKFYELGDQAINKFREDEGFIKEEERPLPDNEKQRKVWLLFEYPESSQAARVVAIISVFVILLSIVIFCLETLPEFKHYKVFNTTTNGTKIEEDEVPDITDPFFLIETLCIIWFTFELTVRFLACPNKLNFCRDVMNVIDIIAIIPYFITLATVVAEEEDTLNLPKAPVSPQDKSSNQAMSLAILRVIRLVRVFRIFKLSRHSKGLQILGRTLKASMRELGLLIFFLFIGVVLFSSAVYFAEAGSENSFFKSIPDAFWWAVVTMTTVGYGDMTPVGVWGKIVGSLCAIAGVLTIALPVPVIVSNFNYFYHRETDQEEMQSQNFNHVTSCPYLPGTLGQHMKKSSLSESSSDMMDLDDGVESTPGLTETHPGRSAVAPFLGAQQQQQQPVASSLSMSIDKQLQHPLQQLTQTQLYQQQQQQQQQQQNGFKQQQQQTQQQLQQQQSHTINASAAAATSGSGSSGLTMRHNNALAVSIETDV

Compound = CC(C)[C@H]1CC[C@@H](N2CCC3(CC2)C(=O)NCN3c2ccccc2)CC1; assay = twitch contraction, electrical stimulation; test system = mouse, mouse vas deferens; quantity = Emax; value = 100 % inhibition
Compound = Cc1cc(C(=O)N[C@@H](Cc2cccc3ccccc23)C(=O)N[C@@H](CC(C)C)C(=O)N[C@H](C=O)C[C@@H]2CCCNC2=O)no1; tested on = Norovirus; assay = viral replication, RT-qPCR; test system = norovirus replicon cells; setting = four days; quantity = EC50; value = 10 ± 10 nM
Compound = O=C(NC1CCN(c2ncnc3[nH]cnc23)CC1)c1cccc(NS(=O)(=O)c2ccc(Cl)cc2)c1; tested on = SARS-CoV-2; test system = Wuhan-Hu-1; setting = 0.09145 µM; how to read = reference: untreated infected cells; quantity = relative infection; value = 71%
Compound = CC[C@H](C)[C@H](NC(=O)[C@H](C)NC(=O)[C@H](CCC(=O)O)NC(=O)[C@H](CCC(=O)O)NC(=O)[C@H](CC(C)C)NC(=O)[C@H](CCCCN)NC(=O)[C@H](CCCCN)NC(=O)[C@H](CCSC)NC(=O)[C@H](CCC(=O)O)NC(=O)[C@H](Cc1ccc(O)cc1)NC(=O)[C@H](CCC(=O)O)NC(=O)[C@H](CC(C)C)NC(=O)[C@H](CC(=O)O)NC(=O)[C@H](CC(C)C)NC(=O)[C@H](Cc1ccccc1)NC(=O)[C@@H](NC(=O)[C@@H](NC(=O)[C@H](CC(N)=O)NC(=O)[C@@H](NC(=O)[C@H](CCC(N)=O)NC(=O)[C@H](CC(=O)O)NC(=O)[C@H](CC(C)C)NC(=O)[C@H](CO)NC(=O)[C@H](CC(C)C)NC(=O)[C@H](CC(=O)O)NC(=O)[C@@H]1CCCN1C(=O)[C@H](C)N)[C@@H](C)CC)C(C)C)[C@@H](C)O)C(=O)N[C@@H](CCCCN)C(=O)N[C@@H](CCCCN)C(=O)N[C@@H](CC(C)C)C(=O)N[C@@H](CCC(=O)O)C(=O)N[C@@H](CCC(=O)O)C(=O)N[C@@H](CO)C(=O)N[C@@H](Cc1ccc(O)cc1)C(=O)N[C@H](C(=O)N[C@@H](CC(=O)O)C(=O)N[C@@H](CC(C)C)C(=O)N[C@@H](CCCCN)C(=O)N[C@@H](CCC(=O)O)C(=O)N[C@@H](CC(C)C)C(=O)O)[C@@H](C)CC; tested on = SARS-CoV-2 Delta pseudovirus; assay = pseudovirus infection, inhibitor, luciferase; test system = Caco-2; setting = 24 h; quantity = IC50; value = 345 nM
Compound = NCc1ccc(-c2ncc(OCC3CCNCC3)nc2-c2ccc(-c3ccoc3)cc2)cc1; tested on = Zika virus; test system = ZIKV-FLR, C57BL/6 mice, interferon receptor knockout, brain; setting = intraperitoneal, 15 mg/kg every 12 h, 24 h, started 1 h before infection; quantity = reduction in viral RNA; value = 98%
Compound = Cc1ccccc1S(=O)(=O)Nc1cccc(C(=O)NC2CCN(c3ncnc4[nH]cnc34)CC2)c1; tested on = SARS-CoV-2; test system = Wuhan-Hu-1; setting = 66.67 µM; how to read = reference: untreated infected cells; quantity = relative infection; value = 23.4%
Compound = CC[C@H](C)[C@H](NC(=O)[C@H](C)NC(=O)[C@H](CCC(=O)O)NC(=O)[C@H](CCC(=O)O)NC(=O)[C@H](CC(C)C)NC(=O)[C@H](CCCCN)NC(=O)[C@H](CCCCN)NC(=O)[C@H](CCSC)NC(=O)[C@H](CCC(=O)O)NC(=O)[C@H](Cc1ccc(O)cc1)NC(=O)[C@H](CCC(=O)O)NC(=O)[C@H](CC(C)C)NC(=O)[C@H](CC(=O)O)NC(=O)[C@H](CC(C)C)NC(=O)[C@H](Cc1ccccc1)NC(=O)[C@@H](NC(=O)[C@@H](NC(=O)[C@H](CC(N)=O)NC(=O)[C@@H](NC(=O)[C@H](CCC(N)=O)NC(=O)[C@H](CC(=O)O)NC(=O)[C@H](CC(C)C)NC(=O)[C@@H](N)CO)[C@@H](C)CC)C(C)C)[C@@H](C)O)C(=O)N[C@@H](CCCCN)C(=O)N[C@@H](CCCCN)C(=O)N[C@@H](CC(C)C)C(=O)N[C@@H](CCC(=O)O)C(=O)N[C@@H](CCC(=O)O)C(=O)N[C@H](C(=O)N[C@@H](Cc1ccc(O)cc1)C(=O)N[C@H](C(=O)N[C@@H](CC(=O)O)C(=O)N[C@@H](CC(C)C)C(=O)N[C@@H](CCCCN)C(=O)N[C@@H](CCC(=O)O)C(=O)N[C@@H](CC(C)C)C(=O)O)[C@@H](C)CC)[C@@H](C)O; tested on = SARS-CoV-2 XBB.1.5 pseudovirus; assay = pseudovirus infection, inhibitor, luciferase; test system = Caco-2; setting = 24 h; quantity = IC50; value = 501 nM
Compound = CC#Cc1ccc2c(=O)[nH]nc(Cc3ccc(F)c(C(=O)N4CCN(c5ccc(C#N)cn5)CC4)c3)c2c1; tested on = CT26; assay = western blot, measured: pSTAT1 (Tyr701); setting = 300 nM; quantity = onset time; value = 4 h
Compound = O=C(NC1CCN(c2ncnc3[nH]cnc23)CC1)c1cccc(NS(=O)(=O)c2ccc([N+](=O)[O-])cc2)c1; tested on = SARS-CoV-2; test system = Wuhan-Hu-1; setting = 0.09145 µM; how to read = reference: untreated infected cells; quantity = relative infection; value = 74.9%
Compound = CS(=O)(=O)Cc1onc(-c2cccc(Cl)c2)c1-c1ccnc(N[C@@H]2CCN(C(=O)c3nccs3)C2)n1; tested on = PRKG1 (Homo sapiens, UniProt Q13976); assay = kinase activity, inhibitor, IMAP; setting = 10 µM, together with: FAM-IP3R peptide; quantity = inhibition; value = 7.4 ± 0.6%
Compound = CCOP(=O)(OCC)ON1C(=O)c2cccc3cccc(c23)C1=O; tested on = Bche (Rattus norvegicus, UniProt Q9JKC1); assay = inhibitor; test system = rat, postnatal day 1, rat serum; quantity = IC50; value = 5 nM
Compound = CC(C)C[C@@H]1NC(=O)[C@H](CCCCN)NC(=O)[C@H](Cc2ccc(O)cc2)NC(=O)CNC(=O)[C@@H]2CSSC[C@H](NC1=O)C(=O)N[C@@H](Cc1ccccc1)C(=O)N1C[C@H](O)C[C@H]1C(=O)N[C@H](C(N)=O)CSSC[C@H](NC(=O)[C@@H](NC(=O)[C@@H](N)CO)C(C)C)C(=O)N2; assay = behavioural effects; test system = Aplysia californica; setting = injection, 10 nmol; quantity = onset of symptoms; value = ~5 min
Compound = CC[C@H](C)[C@H](NC(=O)[C@H](C)NC(=O)[C@H](CCC(=O)O)NC(=O)[C@H](CCC(=O)O)NC(=O)[C@H](CC(C)C)NC(=O)[C@H](CCCCN)NC(=O)[C@H](CCCCN)NC(=O)[C@H](CCSC)NC(=O)[C@H](CCC(=O)O)NC(=O)[C@H](Cc1ccc(O)cc1)NC(=O)[C@H](CCC(=O)O)NC(=O)[C@H](CC(C)C)NC(=O)[C@H](CC(=O)O)NC(=O)[C@H](CC(C)C)NC(=O)[C@H](Cc1ccccc1)NC(=O)[C@H](Cc1ccccc1)NC(=O)[C@@H](NC(=O)[C@H](CC(N)=O)NC(=O)[C@@H](NC(=O)[C@H](CCC(N)=O)NC(=O)[C@H](CC(=O)O)NC(=O)[C@H](CC(C)C)NC(=O)[C@@H](N)CO)[C@@H](C)CC)C(C)C)C(=O)N[C@@H](CCCCN)C(=O)N[C@@H](CCCCN)C(=O)N[C@@H](CC(C)C)C(=O)N[C@@H](CCC(=O)O)C(=O)N[C@@H](CCC(=O)O)C(=O)N[C@@H](C)C(=O)N[C@@H](Cc1ccc(O)cc1)C(=O)N[C@H](C(=O)N[C@@H](CC(=O)O)C(=O)N[C@@H](CC(C)C)C(=O)N[C@@H](CCCCN)C(=O)N[C@@H](CCC(=O)O)C(=O)N[C@@H](CC(C)C)C(=O)O)[C@@H](C)CC; tested on = SARS-CoV-2 Gamma pseudovirus; assay = pseudovirus infection, inhibitor, luciferase; test system = Caco-2; setting = 24 h, dual mutations; quantity = IC50; value = 550 nM
Compound = CC[C@H](C)[C@@H]1NC(=O)[C@H](CCCNC(=N)N)NC(=O)[C@@H](N)CSSC[C@@H]2NC(=O)[C@@H]3CSSC[C@@H](C(=O)N[C@H](C(=O)O)C(C)C)NC(=O)[C@H](CCCCN)NC(=O)[C@H](CC(N)=O)NC(=O)[C@H](Cc4ccccc4)NC(=O)[C@H](CCCNC(=N)N)NC(=O)[C@H](CC(N)=O)NC(=O)[C@H](CSSC[C@H](NC(=O)[C@H](CCCCN)NC(=O)[C@H](CCC(N)=O)NC(=O)[C@H](CC(N)=O)NC(=O)[C@@H]4C[C@@H](O)CN4C1=O)C(=O)N[C@@H](Cc1ccccc1)C(=O)N[C@@H](CCC(N)=O)C(=O)N[C@@H](Cc1c[nH]cn1)C(=O)N[C@@H](CC(C)C)C(=O)N[C@@H](CC(=O)O)C(=O)N[C@@H](CC(=O)O)C(=O)N3)NC(=O)[C@H](CCCCN)NC(=O)[C@H](CCCNC(=N)N)NC(=O)[C@H](CO)NC2=O; tested on = Sh (Drosophila melanogaster, UniProt P08510, del6-46); assay = potassium current, outside-out patch clamp; setting = 500 nM, -40 mV, 150 ms, together with: TEA 1 mM; quantity = blocked channels; value = ~60%
Compound = CC[C@H](C)[C@H](NC(=O)[C@H](C)NC(=O)[C@H](CCC(=O)O)NC(=O)[C@H](CCC(=O)O)NC(=O)[C@H](CC(C)C)NC(=O)[C@H](CCCCN)NC(=O)[C@H](CCCCN)NC(=O)[C@H](CCSC)NC(=O)[C@H](CCC(=O)O)NC(=O)[C@H](Cc1ccc(O)cc1)NC(=O)[C@H](CCC(=O)O)NC(=O)[C@H](CC(C)C)NC(=O)[C@H](CC(=O)O)NC(=O)[C@H](CC(C)C)NC(=O)[C@H](Cc1ccccc1)NC(=O)[C@@H](NC(=O)[C@@H](NC(=O)[C@H](CC(N)=O)NC(=O)[C@@H](NC(=O)[C@H](CCC(N)=O)NC(=O)[C@H](CC(=O)O)NC(=O)[C@H](CC(C)C)NC(=O)[C@@H](N)CO)[C@@H](C)CC)C(C)C)[C@@H](C)O)C(=O)N[C@@H](CCCCN)C(=O)N[C@@H](CCCCN)C(=O)N[C@@H](CC(C)C)C(=O)N[C@@H](CCC(=O)O)C(=O)N[C@@H](CCC(=O)O)C(=O)N[C@@H](CO)C(=O)N[C@@H](Cc1ccc(O)cc1)C(=O)N[C@H](C(=O)N[C@@H](CC(=O)O)C(=O)N[C@@H](CC(C)C)C(=O)N[C@@H](CCCCN)C(=O)N[C@@H](CCC(=O)O)C(=O)N[C@@H](CC(C)C)C(=O)O)[C@@H](C)CC; tested on = SARS-CoV-2 Beta pseudovirus; assay = pseudovirus infection, inhibitor, luciferase; test system = Caco-2; setting = 24 h, dual mutations; quantity = IC50; value = 1000 nM
Compound = Cc1ccc(S(=O)(=O)Nc2cccc(C(=O)NC3CCN(c4ncnc5[nH]cnc45)CC3)c2)cc1; tested on = monkeypox virus E1/E12; setting = 0.7812 µM; quantity = inhibition; value = 14.4% and 13.9%
Compound = CC[C@H](C)[C@H](NC(=O)[C@H](C)NC(=O)[C@H](CCC(=O)O)NC(=O)[C@H](CCC(=O)O)NC(=O)[C@H](CC(C)C)NC(=O)[C@H](CCCCN)NC(=O)[C@H](CCCCN)NC(=O)[C@H](CCSC)NC(=O)[C@H](CCC(=O)O)NC(=O)[C@H](Cc1ccc(O)cc1)NC(=O)[C@H](CCC(=O)O)NC(=O)[C@H](CC(C)C)NC(=O)[C@H](CC(=O)O)NC(=O)[C@H](CC(C)C)NC(=O)[C@H](Cc1ccccc1)NC(=O)[C@@H](NC(=O)[C@@H](NC(=O)[C@H](CC(N)=O)NC(=O)[C@@H](NC(=O)[C@H](CCC(N)=O)NC(=O)[C@H](CC(=O)O)NC(=O)[C@H](CC(C)C)NC(=O)[C@@H](N)CO)[C@@H](C)CC)C(C)C)[C@@H](C)O)C(=O)N[C@@H](CCCCN)C(=O)N[C@@H](CCCCN)C(=O)N[C@@H](CC(C)C)C(=O)N[C@@H](CCC(=O)O)C(=O)N[C@@H](CCC(=O)O)C(=O)N[C@@H](C)C(=O)N[C@@H](Cc1ccc(O)cc1)C(=O)N[C@H](C(=O)N[C@@H](CC(=O)O)C(=O)N[C@@H](CC(C)C)C(=O)N[C@@H](CCCCN)C(=O)N[C@@H](CCC(=O)O)C(=O)N[C@@H](CC(C)C)C(=O)O)[C@@H](C)CC; tested on = SARS-CoV-2 Gamma pseudovirus; assay = pseudovirus infection, inhibitor, luciferase; test system = Caco-2; setting = 24 h; quantity = IC50; value = 520 nM
Compound = Nc1ccc([As]=O)cc1 (stereo not drawn); tested on = NCM460; assay = cell viability, MTS; quantity = IC50; value = 3670 ± 100 nM
